Experimental data of several laboratories.
Technique: steady-state kinetics
B1: protein (Shewanella denitrificans, UniProt Q12KT8); chain MIHKLADVQSQNIGDNTKVWQFCVILAGAVIGRNCNICANSLIENDVVIGDNVTIKSGVQIWDGIHIQDDVFIGPNVTFTNDKQPRSKIYPDEYLKTIVKKGASIGANSTILPGILIGENAMVGAGAVITKNVPDNAIVIGNPGRITGYVEANTGVIMPSNNFELKLQMSKVKGVSLHKFHLVNDLRGNLSVGEFEKDIPFTPKRYFTVFGVPNKEVRGEHAHKECKQFLICVSGNCSVLVDDGENREEYVLDSIDKGIYLPPMTWGVQYKYSKDAVLLVFASHYYDSDDYIRDYSTFKQMRQN
B2: protein Y93N (Thermus thermophilus, UniProt Q5SKR5); chain MSAPKPFVIGIAGGTASGKTTLAQALARTLGERVALLPMDHYYKDLGHLPLEERLRVNYDHPDAFDLALYLEHAQALLRGLPVEMPVYDFRANTRSPRRTPVRPAPVVILEGILVLYPKELRDLMDLKVFVDADADERFIRRLKRDVLERGRSLEGVVAQYLEQVKPMHLHFVEPTKRYADVIVPRGGQNPVALEMLAAKALARLARMGAA
B3: Nudt8 (Mus musculus, UniProt Q9CR24); chain MLPDGLSAEDEQRCRQLLARTTARLRSRPAAAAVLVPLCLVRGVPALLYTLRSSRLVGRHKGEVSFPGGKCDPDDQDVIHTALRETQEELGLEVPKEHVWGVLQPVYDREKATIVPVLANVGPLDLQSLRPNLEEVDEVFEMSLAHLLQTQNQGYTHFCQGGHFSYTLPVFLHGPHRVWGLTAVITELTLKLLAPGFYQPSLAVPELPRG
B4: Tat (Mus musculus, UniProt Q8QZR1); chain WNVRPSDMSNKTFNPIRAIVDNMKVKPNPNKTVISLSIGDPTVFGNLPTDPEVTQAMKDALDSGKYNGYAPSIGYLSSREEVASYYHCPEAPLEAKDVILTSGCSQAIELCLAVLANPGQNILIPRPGFSLYRTLAESMGIEVKLYNLLPEKSWEIDLKQLESLIDEKTACLVVNNPSNPCGSVFSKRHLQKILAVAERQCVPILADEIYGDMVFSDCKYEPMATLSTNVPILSCGGLAKRWLVPGWRLGWILIHDRRDIFGNEIRDGLVKLSQRILGPCTIVQGALKSILQRTPQEFYQDTLSFLKSNADLCYGALSAIPGLQPVRPSGAMYLMVGIEMEHFPEFENDVEFTERLIAEQSVHCLPATCFEYPNFFRVVITVPEVMMLEACSRIQEFCEQHY
B5: Mj-MAT W387F/Y72W (Methanocaldococcus jannaschii, UniProt Q58605); chain MRNIIVKKLDVEPIEERPTEIVERKGLGHPDSICDGIAESVSRALCKMYMEKFGTILHHNTDQVELVGGHAWPKFGGGVMVSPIYILLSGRATMEILDKEKNEVIKLPVGTTAVKAAKEYLKKVLRNVDVDKDVIIDCRIGQGSMDLVDVFERQKNEVPLANDTSFGVGYAPLSTTERLVLETERFLNSDELKNEIPAVGEDIKVMGLREGKKITLTIAMAVVDRYVKNIEEYKEVIEKVRKKVEDLAKKIADGYEVEIHINTADDYERESVYLTVTGTSAEMGDDGSVGRGNRVNGLITPFRPMSMEAASGKNPVNHVGKIYNILANLIANDIAKLEGVKECYVRILSQIGKPINEPKALDIEIITEDSYDIKDIEPKAKEIANKFLDNIMEVQKMIVEGKVTTF
B6: MCAT R178Q (Homo sapiens, UniProt Q8IVS2); chain GQGSQVVGMGRGLLNYPRVRELYAAARRVLGYDLLELSLHGPQETLDRTVHCQPAIFVASLAAVEKLHHLQPSVIENCVAAAGFSVGEFAALVFAGAMEFAEGLYAVKIQAEAMQEASEAVPSGMLSVLGQPQSKFNFACLEAREHCKSLGIENPVCEVSNYLFPDCRVISGHQEALRFLQKNSSKFHFRRTRMLPVSGAFHTRLMEPAVEPLTQALKAVDIKKPLVSVYSNVHAHRYRHPGHIHKLLAQQLVSPVKWEQTMHAIYERKKGRGFPQTFEVGPGRQLGAILKSCNMQAWKSYSAVDVL
B7: enzyme (Thermobifida fusca, UniProt Q47RA9); chain MIMIMASKSSPHDLPDVSGLSIAVLGGTGDQGRGLARRFAMAGHEVILGSRSAERAQAVAAELGEGLPVRGMDNAGAAEAGDVVIVAVPWDGHRALLESLKDVLAGKIVVDCVNPLGFDKRGAYALPVEEGSAAEQAAAILPDSRVVAAFHHVSAVLLLDPEVEKVDLDVLVLGDDREATDVVRALAARIPGVRGVYGGRLRNAHQVEAFTANLISINRRYKAHAGIRITDI
B8: ltaE H83F (Escherichia coli, UniProt P75823); chain MIDLRSDTVTRPSRAMLEAMMAAPVGDDVYGDDPTVNALQDYAAELSGKEAAIFLPTGTQANLVALLSHCERGEEYIVGQAAFNYLFEAGGAAVLGSIQPQPIDAAADGTLPLDKVAMKIKPDDIHFARTKLLSLENTHNGKVLPREYLKEAWEFTRERNLALHVDGARIFNAVVAYGCELKEITQYCDSFTICLSKGLGTPVGSLLVGNRDYIKRAIRWRKMTGGGMRQSGILAAAGIYALKNNVARLQEDHDNAAWMAEQLREAGADVMRQDTNMLFVRVGEENAAALGEYMKARNVLINASPIVRLVTHLDVSREQLAEVAAHWRAFLAR
B9: enzyme (Plasmodium falciparum, UniProt Q8IIG6); chain MTTYTLVLLRHGESTWNKENKFTGWTDVPLSEKGEEEAIAAGKYLKEKNFKFDVVYTSVLKRAICTAWNVLKTADLLHVPVVKTWRLNERHYGSLQGLNKSETAKKYGEEQVKIWRRSYDIPPPKLDKEDNRWPGHNVVYKNVPKDALPFTECLKDTVERVLPFWFDHIAPDILANKKVMVAAHGNSLRGLVKHLDNLSEADVLELNIPTGVPLVYELDENLKPIKHYYLLDSEELKKKMDEVANQGKAK
B10: LIP (Thermomyces lanuginosus, UniProt O59952); chain EVSQDLFNQFNLFAQYSAAAYCGKNNDAPAGTNITCTGNACPEVEKADATFLYSFEDSGVGDVTGFLALDNTNKLIVLSFRGSRSIENWIGNLNFDLKEINDICSGCRGHDGFTSSWRSVADTLRQKVEDAVREHPDYRVVFTGHSLGGALATVAGADLRGNGYDIDVFSYGAPRVGNRAFAEFLTVQTGGTLYRITHTNDIVPRLPPREFGYSHSSPEYWIKSGTLVPVTRNDIVKIEGIDATGGNNQPNIPDIPAHLWYFGLIGTCL
B11: ABHD14B (Homo sapiens, UniProt Q96IU4); chain MAASVEQREGTIQVQGQALFFREALPGSGQARFSVLLLHGIRFSSETWQNLGTLHRLAQAGYRAVAIDLPGLGHSKEAAAPAPIGELAPGSFLAAVVDALELGPPVVISPSLSGMYSLPFLTAPGSQLPGFVPVAPICTDKINAANYASVKTPALIVYGDQDPMGQTSFEHLKQLPNHRVLIMKGAGHPCYLDKPEEWHTGLLDFLQGLQ
Sequence of UniProt J9VYP5 (whole entry, looked up): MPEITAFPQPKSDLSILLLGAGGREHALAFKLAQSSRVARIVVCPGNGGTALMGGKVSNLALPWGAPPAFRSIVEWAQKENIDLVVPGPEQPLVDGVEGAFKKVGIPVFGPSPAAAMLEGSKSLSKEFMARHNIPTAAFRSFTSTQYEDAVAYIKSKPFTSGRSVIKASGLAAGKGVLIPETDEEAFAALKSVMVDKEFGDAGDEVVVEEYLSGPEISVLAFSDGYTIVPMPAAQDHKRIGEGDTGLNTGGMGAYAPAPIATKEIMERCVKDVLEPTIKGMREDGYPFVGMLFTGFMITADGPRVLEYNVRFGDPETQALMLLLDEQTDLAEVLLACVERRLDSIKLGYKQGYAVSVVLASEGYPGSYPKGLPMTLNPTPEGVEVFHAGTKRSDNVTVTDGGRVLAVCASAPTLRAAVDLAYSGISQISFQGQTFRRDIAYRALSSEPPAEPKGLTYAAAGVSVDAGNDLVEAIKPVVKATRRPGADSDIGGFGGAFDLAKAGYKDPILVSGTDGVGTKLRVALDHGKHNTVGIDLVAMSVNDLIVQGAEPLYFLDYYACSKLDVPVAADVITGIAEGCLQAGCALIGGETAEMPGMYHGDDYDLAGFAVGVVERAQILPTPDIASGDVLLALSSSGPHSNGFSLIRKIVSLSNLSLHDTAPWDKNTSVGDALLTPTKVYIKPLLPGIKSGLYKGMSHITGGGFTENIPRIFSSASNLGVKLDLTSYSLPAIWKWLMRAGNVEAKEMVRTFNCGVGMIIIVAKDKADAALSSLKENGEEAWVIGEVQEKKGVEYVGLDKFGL
Sequence of UniProt Q48796 (whole entry, looked up): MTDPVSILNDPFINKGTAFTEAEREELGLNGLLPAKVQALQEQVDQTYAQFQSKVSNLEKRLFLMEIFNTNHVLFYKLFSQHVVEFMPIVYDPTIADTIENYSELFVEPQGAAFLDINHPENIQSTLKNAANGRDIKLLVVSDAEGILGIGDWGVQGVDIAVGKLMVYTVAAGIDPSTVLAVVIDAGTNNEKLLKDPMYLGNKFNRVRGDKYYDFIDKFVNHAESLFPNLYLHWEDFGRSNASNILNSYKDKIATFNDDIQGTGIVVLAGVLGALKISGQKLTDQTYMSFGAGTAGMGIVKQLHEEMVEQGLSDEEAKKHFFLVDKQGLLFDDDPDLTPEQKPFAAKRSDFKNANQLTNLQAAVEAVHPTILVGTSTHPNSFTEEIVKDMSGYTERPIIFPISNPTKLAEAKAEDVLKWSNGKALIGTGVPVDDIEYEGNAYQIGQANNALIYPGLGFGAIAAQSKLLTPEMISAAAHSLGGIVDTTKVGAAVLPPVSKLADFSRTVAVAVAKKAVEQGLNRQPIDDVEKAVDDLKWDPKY
Sequence of UniProt P05181 (whole entry, looked up): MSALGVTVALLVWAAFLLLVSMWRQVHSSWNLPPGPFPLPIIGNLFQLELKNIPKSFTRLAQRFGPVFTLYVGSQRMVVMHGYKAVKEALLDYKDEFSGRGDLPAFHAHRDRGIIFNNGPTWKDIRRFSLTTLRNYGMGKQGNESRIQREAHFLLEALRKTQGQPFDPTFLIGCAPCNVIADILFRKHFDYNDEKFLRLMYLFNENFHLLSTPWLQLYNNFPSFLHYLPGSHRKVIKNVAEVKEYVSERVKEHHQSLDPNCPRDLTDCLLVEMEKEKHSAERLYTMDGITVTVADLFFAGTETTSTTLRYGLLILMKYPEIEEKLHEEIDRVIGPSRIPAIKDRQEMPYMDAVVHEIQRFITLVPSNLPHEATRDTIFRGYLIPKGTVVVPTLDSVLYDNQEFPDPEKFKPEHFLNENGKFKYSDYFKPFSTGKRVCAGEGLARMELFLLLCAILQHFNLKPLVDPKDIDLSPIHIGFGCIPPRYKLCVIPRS
Sequence of UniProt Q9NZ08 (whole entry, looked up): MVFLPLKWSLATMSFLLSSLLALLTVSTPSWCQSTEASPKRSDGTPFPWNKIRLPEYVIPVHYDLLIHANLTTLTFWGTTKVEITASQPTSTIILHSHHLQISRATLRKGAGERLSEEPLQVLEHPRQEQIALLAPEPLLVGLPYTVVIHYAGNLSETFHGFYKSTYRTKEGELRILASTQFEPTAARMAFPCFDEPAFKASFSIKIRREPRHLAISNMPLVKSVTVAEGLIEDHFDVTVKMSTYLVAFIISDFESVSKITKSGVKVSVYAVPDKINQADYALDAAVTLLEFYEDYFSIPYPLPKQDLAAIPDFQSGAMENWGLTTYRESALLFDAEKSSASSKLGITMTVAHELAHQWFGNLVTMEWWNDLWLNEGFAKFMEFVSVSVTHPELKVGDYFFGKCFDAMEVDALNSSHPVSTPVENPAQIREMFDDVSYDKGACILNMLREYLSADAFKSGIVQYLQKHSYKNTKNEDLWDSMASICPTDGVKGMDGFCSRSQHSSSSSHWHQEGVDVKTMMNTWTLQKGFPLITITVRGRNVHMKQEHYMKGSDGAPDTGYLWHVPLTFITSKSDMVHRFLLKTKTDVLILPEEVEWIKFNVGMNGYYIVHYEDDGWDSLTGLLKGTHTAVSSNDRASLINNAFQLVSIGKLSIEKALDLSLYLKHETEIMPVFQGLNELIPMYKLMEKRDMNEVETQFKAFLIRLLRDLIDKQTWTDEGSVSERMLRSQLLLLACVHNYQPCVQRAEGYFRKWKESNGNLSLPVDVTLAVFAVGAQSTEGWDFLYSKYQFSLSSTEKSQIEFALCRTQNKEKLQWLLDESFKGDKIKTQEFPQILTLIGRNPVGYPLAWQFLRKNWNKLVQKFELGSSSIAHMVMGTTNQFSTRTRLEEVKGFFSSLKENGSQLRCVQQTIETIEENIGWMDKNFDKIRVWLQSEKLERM

`B1 (protein)` gave a Km of 110 µM (Cc1cn([C@H]2C[C@H](O)[C@@H](COP(=O)(O)OP(=O)(O)O[C@H]3O[C@H](C)[C@@H](O)[C@H](N)[C@H]3O)O2)c(=O)[nH]c1=O; pH 8.5, added: acetyl-CoA 2 mM).
For `B2 (protein Y93N)`, the Km was 470 µM (Nc1ccn([C@@H]2O[C@H](CO)[C@@H](O)[C@H]2O)c(=O)n1; pH 7.2, 25 °C, KCl 100 mM, added: ATP 100–200 µM).
`enzyme (Candida albicans, UniProt A0A1D8PHX1)` gave a Km of 38.8 µM (CC/C=C\C/C=C\C/C=C\CCCCCCCC(=O)SCCNC(=O)CCNC(=O)[C@H](O)C(C)(C)COP(=O)(O)OP(=O)(O)OC[C@H]1O[C@@H](n2cnc3c(N)ncnc32)[C@H](O)[C@@H]1OP(=O)(O)O; pH 7.4, 37 °C, apparent, not purified).
`B3 (Nudt8)` gave a Km of 251 µM (CCCCCC(=O)SCCNC(=O)CCNC(=O)[C@H](O)C(C)(C)COP(=O)(O)OP(=O)(O)OC[C@H]1O[C@@H](n2cnc3c(N)ncnc32)[C@H](O)[C@@H]1OP(=O)(O)O; pH 8.5, added: 2 mM Mn2+).
`mleA (Oenococcus oeni, UniProt Q48796)` gave a Km of 5300 µM (O=C(O)C[C@H](O)C(=O)O; pH 6, 45 °C).
`B4 (Tat)` gave a Km of 900 µM (O=C(O)C(=O)Cc1ccccc1; pH 7, 38 °C, added: PLP).
The Km of `B5 (Mj-MAT W387F/Y72W)` is reported as 130 µM (CSCC[C@H](N)C(=O)O; 55 °C, added: ATP 2.5 mM, methionine 0.05-1 mM).
`B6 (MCAT R178Q)` gave a Km of 9.1 µM (CC(=O)SCCNC(=O)CCNC(=O)[C@H](O)C(C)(C)COP(=O)(O)OP(=O)(O)OC[C@H]1O[C@@H](n2cnc3c(N)ncnc32)[C@H](O)[C@@H]1OP(=O)(O)O; pH 6.8, 20 °C, labelled substrate, added: holo-ACP 20 µM).
With `CYP2E1 (Homo sapiens, UniProt P05181)` the Km was 39.4 µM (C=Cc1ccc(Cl)cc1; pH 7.4, 37 °C).
For `CYP2C9 (Homo sapiens, UniProt P11712)`, the Km was 15.4 µM (Cc1ccc(Nc2c(F)cccc2Cl)c(CC(=O)O)c1; pH 7.4, Hill model, CYP2C9, metabolite, not purified).
`B7 (enzyme)` gave a Km of 25000 µM (NC(=O)c1ccc[n+](CCCO)c1; pH 8, 25 °C).
For `ERAP1 (Homo sapiens, UniProt Q9NZ08)`, the Km was 2.4 µM (CC(C)C[C@H](N)C(=O)N[C@@H](CO)C(=O)N[C@@H](CCCNC(=N)N)C(=O)N[C@@H](Cc1c[nH]cn1)C(=O)N[C@@H](Cc1c[nH]cn1)C(=O)N[C@@H](C)C(=O)N[C@@H](Cc1ccccc1)C(=O)N[C@@H](CO)C(=O)N[C@@H](Cc1ccccc1)C(=O)N[C@@H](CCCNC(=N)N)C(=O)O; 25 °C).
`B8 (ltaE H83F)` has a Km of 7000 µM (C[C@H](O)[C@H](N)C(=O)O; pH 7, 30 °C, potassium phosphate 20 mM, retro-aldol cleavage, added: PLP 500 µM).
`B9 (enzyme)` gave a Km of 182 µM (O=C(O)[C@H](O)COP(=O)(O)O; pH 7.5, 37 °C).
`B10 (LIP)` has a Km of 1.03 µM (CCCC(=O)Oc1ccc([N+](=O)[O-])cc1; pH 8.2, 25 °C, free enzyme).
For `GAR synthetase (Cryptococcus neoformans, UniProt J9VYP5)`, the Km was 240 µM (N[C@@H]1O[C@H](COP(=O)(O)O)[C@@H](O)[C@H]1O; pH 8, 37 °C, apparent).
The Km of `B11 (ABHD14B)` is reported as 1800 µM (CC(=O)Oc1ccc([N+](=O)[O-])cc1; pH 8, 37 °C).
